# Experimental data gathered from unrelated publications.
# Parts stem from different laboratories: compare values within a part only.

# Sample 1
# Target: Sal-like protein 4, full length isoform A (SALL4, Homo sapiens, UniProt Q9UJQ4, residues 1-1053)
# Chain of UniProt Q9UJQ4 (whole entry, looked up): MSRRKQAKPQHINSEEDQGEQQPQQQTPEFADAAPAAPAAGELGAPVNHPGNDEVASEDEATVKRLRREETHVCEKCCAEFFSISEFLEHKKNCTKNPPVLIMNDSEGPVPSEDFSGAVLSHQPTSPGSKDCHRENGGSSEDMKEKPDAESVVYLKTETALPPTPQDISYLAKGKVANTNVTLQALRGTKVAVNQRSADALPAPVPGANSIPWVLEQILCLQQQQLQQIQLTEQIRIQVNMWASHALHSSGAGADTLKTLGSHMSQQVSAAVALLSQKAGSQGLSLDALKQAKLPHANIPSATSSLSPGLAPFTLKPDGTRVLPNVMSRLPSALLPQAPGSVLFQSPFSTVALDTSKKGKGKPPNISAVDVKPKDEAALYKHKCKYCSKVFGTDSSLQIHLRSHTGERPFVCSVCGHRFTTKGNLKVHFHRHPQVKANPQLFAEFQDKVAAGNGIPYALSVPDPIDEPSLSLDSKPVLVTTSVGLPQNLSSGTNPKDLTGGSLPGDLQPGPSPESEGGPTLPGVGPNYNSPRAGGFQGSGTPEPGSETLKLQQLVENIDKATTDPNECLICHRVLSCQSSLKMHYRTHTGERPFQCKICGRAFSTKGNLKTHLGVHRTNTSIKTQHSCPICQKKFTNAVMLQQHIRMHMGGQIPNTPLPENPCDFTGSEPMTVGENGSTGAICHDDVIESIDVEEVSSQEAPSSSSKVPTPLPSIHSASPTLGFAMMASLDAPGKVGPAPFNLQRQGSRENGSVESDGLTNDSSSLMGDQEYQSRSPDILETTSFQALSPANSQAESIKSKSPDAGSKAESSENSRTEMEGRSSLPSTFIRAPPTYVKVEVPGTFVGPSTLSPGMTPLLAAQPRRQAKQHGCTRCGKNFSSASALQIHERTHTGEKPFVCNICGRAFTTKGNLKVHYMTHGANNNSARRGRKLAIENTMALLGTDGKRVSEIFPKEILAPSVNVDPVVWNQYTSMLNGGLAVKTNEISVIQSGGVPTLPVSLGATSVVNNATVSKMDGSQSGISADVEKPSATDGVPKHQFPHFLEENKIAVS
# Method: universal PBM
# Molecule type: double-stranded DNA, one strand shown
# Medium: in vitro
# Concentration: 600 nM
# Notes: 8-mer, flanks averaged, mean of replicates
# Reading: higher = stronger binding
Sequence,E-score
CCCGGCGC,-0.369
AACGGATC,0.0576
CAGGGATA,0.0548
ACTAATAA,0.347
CCTGGCTC,-0.229
CTGCTTCA,-0.155
GATCGTAA,0.0821
CAATGGCA,0.0725
ATCGTGCG,0.118
AGAAGGCT,-0.159
ACTACTAT,0.259
AATGGCTC,-0.0657
GTCCCTTA,-0.0293
ATAAAGGA,0.155
AATTCAAA,0.344
AGTCGACA,0.0227

# Sample 2
# Target: Fragile X messenger ribonucleoprotein 1, C-terminal low-complexity region (Fmr1, Mus musculus, UniProt P35922)
# Method: RNA Bind-n-Seq
# Molecule type: RNA
# Medium: in vitro
# Concentration: 200 nM
# Notes: whole 134-nt RNA, ends assumed
# Together with: 150 mM KCl
# Relative to: input library
# Reading: higher = stronger binding
Sequence,log2 enrichment
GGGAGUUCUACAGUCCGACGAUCCACAGACAACACGCACCCACACAGACACAGAGGGAAGGGGUUGGGAUGGGGACAGGGUGCACAGCAGGGCGGGGUAGGACCACAGCCCCUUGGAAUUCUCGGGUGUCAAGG,1.2
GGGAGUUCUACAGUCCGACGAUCUGGCCCUGGUGGCAUGCGGGGAGGAAGAGGUGGCCUCAUGGAUCGUGGUGGACCCGGUGGAAUGUUCAGAGGUGGCCGUGGUGGAGACAGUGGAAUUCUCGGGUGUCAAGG,0.23
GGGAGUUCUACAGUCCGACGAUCUUGUCCCGGAUGGGCAGCCUGCGGGCUCCCGUGGACGAGGACCGCCUGUCCCCGCUGGUGGCGGCCGACUCGCUCCUGGAGCAUGUGCGGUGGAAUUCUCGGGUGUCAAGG,-0.991
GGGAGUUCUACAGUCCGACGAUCAGUCCUGUGCUACACAUCGUAUGUACCGAAUCGGGUUUUUGGGAAAAAAAGGGUGGGAAAGUAUUAUGUUACGCCGUUCGGAUCUGCACUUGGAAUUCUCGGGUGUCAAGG,0.679
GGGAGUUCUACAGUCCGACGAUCGUCCUGUGCUACACAUCGUAUGUACCGAAUCGGUUUUUGGGGUUUUUGGGGUUUUUGGAAAGUAUUAUGUUACGCCGUUCGGAUCUGCACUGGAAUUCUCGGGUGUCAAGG,-0.0582
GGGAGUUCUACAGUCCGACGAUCAAGUCCUGUGCUACACAUCGUAUGUACCGAAUCGGGAGGGAAAAAAAGGGUUUGGGAAAGUAUUAUGUUACGCCGUUCGGAUCUGCACUUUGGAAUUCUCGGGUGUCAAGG,0.73
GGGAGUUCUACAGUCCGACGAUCUGGCUUUCACCCCCAACCAGUGACCAAAGACUUGACCACUCAAAGUCCAGCUCCCCAGAACACUGCUCGACAUGGACACCGGUGUGAUUGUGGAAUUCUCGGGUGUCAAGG,0.662
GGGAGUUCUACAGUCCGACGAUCCUGUGCUACACAUCGUAUGUACCGAAUCGGGGAAAAAAAGGGGAAAAAAAGGGGAAAGGGGAAAGUAUUAUGUUACGCCGUUCGGAUCUGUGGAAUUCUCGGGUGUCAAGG,-0.347

# Sample 3
# Target: RNA binding protein fox-1 homolog 2, RRM domain, GST-SBP tag (RBFOX2, Homo sapiens, UniProt O43251-10, residues 100-194)
# Method: RNA Bind-n-Seq
# Molecule type: RNA
# Medium: in vitro
# Concentration: 365 nM
# Notes: natural RNA segment, single round, ends assumed
# Relative to: no-protein control
# Reading: higher = stronger binding
# Target sequence (chain): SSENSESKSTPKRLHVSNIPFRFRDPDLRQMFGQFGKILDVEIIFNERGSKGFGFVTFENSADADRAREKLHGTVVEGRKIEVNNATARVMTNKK
Sequence,RBNS enrichment (R)
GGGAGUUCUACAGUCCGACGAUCUCAUAGUUUGCAGUGUCCUAGGUAGCACUUGGGGAGCCAGGUGCAUUCAGGGUCAGUAGGGAGGACAAAAUAGGGGGCUCUACGUGCAGUGAGGAAAGGCUGCUGUCAUGUGGAAUUCUCGGGUGCCAA,1.9
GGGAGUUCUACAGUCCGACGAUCACAAGCGAGUCCCUCCAGCUGCUUUAGGAGCCGCUGUGUUCCUGCUGUGUCUUACAGGACUGGAGUGCUGGAUUCGGAGUUAAACGCAUCAAUAUGUAAAAUUGUUGUUUUGGAAUUCUCGGGUGCCAA,0.298
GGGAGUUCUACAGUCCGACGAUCAACAGAAAUUACAUGAGGAAUAUUCCGGCUAGAUUAGGCGCCUGUGGAUAUUGGAGUUGGGUUGAUUUUCCUGAAUUGGUUCCUAUAGGAUCCUCCAAUUUUGGAUCUUCUGGAAUUCUCGGGUGCCAA,0.432
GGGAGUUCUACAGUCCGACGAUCCGAUUGCAUUUAUUAAGCAUCUUUCUGCUCCCGACUUUCUGGUGUCUCUGGCACCAAAUAACCCAGCAGACAUGAGCCUUGCCUUCUGAGAUUUUAGAAUCUAAGAUAGCUGGAAUUCUCGGGUGCCAA,0.777
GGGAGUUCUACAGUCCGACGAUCCCUUAUUGUGGGUGAUGAGGCGGUGCCUAAAAACCACAUAUAUAUAAUCCCCUGGGUAUUACAUAUUCUGCAAGCCCUGUUAGUGGGGAGAUGGUAGUGGCAAUAGCAGCUGGAAUUCUCGGGUGCCAA,0.463
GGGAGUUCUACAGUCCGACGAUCGUAAAACUGAAAUUAUUAUUAGCCAAUGCAUUGGUGCAUAGAAUUUACUAGGGCUACUUCUGGAAGCCAAAAUAGAAUAGCAUUUCCAUGUGCAUUAAAUACUUUGCCAGUGGAAUUCUCGGGUGCCAA,0.523
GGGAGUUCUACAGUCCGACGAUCUAGCUAUUUUUAUACACUGUAAGCUUUGUUCUGGGAGUUGCUGUUAAUCUGAUGUAUAAUGUAAUGUUUUUAUUUCAAUUGUUUAUAUGGAUAAUCUGAGCAGGUACAUUUGGAAUUCUCGGGUGCCAA,0.719
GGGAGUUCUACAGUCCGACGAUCGUUGCAGUGAGCCAAGAUGGCGCCAUUGCACUCCAGCCUGGGCGACAAGAGCAAAACUCCGUCUCAAAAAAAAAAAAAAGAUACAAAGUCUGCAUUUGAUAUAAUGCCUUUGGAAUUCUCGGGUGCCAA,0.603

# Sample 4
# Target: Interferon regulatory factor 3, full length, phosphomimetic (IRF3, Homo sapiens, UniProt Q14653, residues 1-427, S386D/S396D/S398D/S402D/T404D/S405D)
# Method: protein-binding microarray
# Molecule type: double-stranded DNA, one strand shown
# Medium: in vitro
# Concentration: 2540 nM top
# Notes: 60-bp whole probe
# Together with: salmon DNA 0.4 mg/ml
# Relative to: random background probes
# Reading: higher = stronger binding
# Shared flanks, not repeated: GCCTAGCAC … GTCTTGATTCGCTTGACGCTGCTG
# Residues (chain): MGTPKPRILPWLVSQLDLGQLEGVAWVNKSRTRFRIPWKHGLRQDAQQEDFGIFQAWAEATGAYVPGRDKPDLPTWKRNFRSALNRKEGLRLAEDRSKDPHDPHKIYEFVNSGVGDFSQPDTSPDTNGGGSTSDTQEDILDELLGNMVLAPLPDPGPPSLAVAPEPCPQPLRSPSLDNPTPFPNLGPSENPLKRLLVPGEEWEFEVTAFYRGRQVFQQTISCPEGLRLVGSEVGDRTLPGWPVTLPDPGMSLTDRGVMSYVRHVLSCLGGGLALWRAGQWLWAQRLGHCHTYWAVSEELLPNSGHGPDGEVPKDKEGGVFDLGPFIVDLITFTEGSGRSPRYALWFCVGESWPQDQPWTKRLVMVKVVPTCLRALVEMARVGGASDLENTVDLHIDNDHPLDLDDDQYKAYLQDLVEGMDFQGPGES
Sequence,fitted relative affinity
GACGGTTTCCTTTTCCTCACGTGCTAG,10.7 z-score
TCAGGTCTGGATGTGCCACTGTGCTAG,-0.129 z-score
TTAGAACTGAGTCTCGAGTAGTGCTAG,-0.692 z-score
TTAGGTATCGGACTGGTTTAGTGCTAG,1.28 z-score
TTGATTGTGGCTTTTTAATGGTGCTAG,-0.615 z-score
GACGATTCCAATTTCGAGACGTGCTAG,2.19 z-score
TCAAATCTCCCATTATAACTGTGCTAG,1.26 z-score
TTAGGACTGGGGTTTTGGTTAGTGCTA,-0.654 z-score
ATATATGTATATATGTGTATGTGCTAG,0.588 z-score
TTAGGACTGGGGTCTGGGTTAGTGCTA,-1.16 z-score
GTCAAACTCACTCATGGCTTTGTGCTA,-0.378 z-score
TCACCTAGCCATTATGAGACTGTGCTA,-0.00244 z-score
TTAGGCATCCTTATCCTTTAGTGCTAG,0.655 z-score
TCAACTTTCCAATTGTCACTGTGCTAG,4.51 z-score

# Repeated from above (sample 2):
Sequence,log2 enrichment
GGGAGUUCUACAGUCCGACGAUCCACAGACAACACGCACCCACACAGACACAGAGGGAAGGGGUUGGGAUGGGGACAGGGUGCACAGCAGGGCGGGGUAGGACCACAGCCCCUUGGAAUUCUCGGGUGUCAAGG,1.2
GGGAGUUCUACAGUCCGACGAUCUGGCCCUGGUGGCAUGCGGGGAGGAAGAGGUGGCCUCAUGGAUCGUGGUGGACCCGGUGGAAUGUUCAGAGGUGGCCGUGGUGGAGACAGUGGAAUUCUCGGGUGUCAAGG,0.23
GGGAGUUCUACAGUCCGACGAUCUUGUCCCGGAUGGGCAGCCUGCGGGCUCCCGUGGACGAGGACCGCCUGUCCCCGCUGGUGGCGGCCGACUCGCUCCUGGAGCAUGUGCGGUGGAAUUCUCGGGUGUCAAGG,-0.991
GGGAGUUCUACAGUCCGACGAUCAGUCCUGUGCUACACAUCGUAUGUACCGAAUCGGGUUUUUGGGAAAAAAAGGGUGGGAAAGUAUUAUGUUACGCCGUUCGGAUCUGCACUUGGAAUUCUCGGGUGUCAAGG,0.679
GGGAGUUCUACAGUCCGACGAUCGUCCUGUGCUACACAUCGUAUGUACCGAAUCGGUUUUUGGGGUUUUUGGGGUUUUUGGAAAGUAUUAUGUUACGCCGUUCGGAUCUGCACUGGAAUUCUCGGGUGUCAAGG,-0.0582
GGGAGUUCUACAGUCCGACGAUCAAGUCCUGUGCUACACAUCGUAUGUACCGAAUCGGGAGGGAAAAAAAGGGUUUGGGAAAGUAUUAUGUUACGCCGUUCGGAUCUGCACUUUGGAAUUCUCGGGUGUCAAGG,0.73
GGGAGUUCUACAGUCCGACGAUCUGGCUUUCACCCCCAACCAGUGACCAAAGACUUGACCACUCAAAGUCCAGCUCCCCAGAACACUGCUCGACAUGGACACCGGUGUGAUUGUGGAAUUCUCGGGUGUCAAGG,0.662
